{"data": "Assay results from different studies", "method": "steady-state kinetics", "B1": "ASRGL1 (Homo sapiens, UniProt Q7L266); chain 1 MNPIVVVHGGGAGPISKDRKERVHQGMVRAATVGYGILREGGSAVDAVEGAVVALEDDPEFNAGCGSVLNTNGEVEMDASIMDGKDLSAGAVSAVQCIANPIKLARLVMEKTPHCFLTDQGAAQFAAAMGVPEIPGEKLVTERNKKRLEKEKHEKGAQKTDCQKNLG; chain 2 TVGAVALDCKGNVAYATSTGGIVNKMVGRVGDSPCLGAGGYADNDIGAVSTTGHGESILKVNLARLTLFHIEQGKTVEEAADLSLGYMKSRVKGLGGLIVVSKTGDWVAKWTSTSMPWAAAKDGKLHFGIDPDDTTITDLP", "B2": "SUOX R529M/V531M/Y400N (Homo sapiens, UniProt P51687); chain ESTHIYTKEEVSSHTSPETGIWVTLGSEVFDVTEFVDLHPGGPSKLMLAAGGPLEPFWALYAVHNQSHVRELLAQYKIGELNPEDKVAPTVETSDPYADDPVRHPALKVNSQRPFNAEPPPELLTENYITPNPIFFTRNHLPVPNLDPDTYRLHVVGAPGGQSLSLSLDDLHNFPRYEITVTLQCAGNRRSEMTQVKEVKGLEWRTGAISTARWAGARLCDVLAQAGHQLCETEAHVCFEGLDSDPTGTAYGASIPLARAMDPEAEVLLAYEMNGQPLPRDHGFPVRVVVPGVVGARHVKWLGRVSVQPEESYSHWQRRDNKGFSPSVDWETVDFDSAPSIQELPVQSAITEPRDGETVESGEVTIKGYAWSGGGRAVIRVDVSLDGGLTWQVAKLDGEEQRPRKAWAWRLWQLKAPVPAGQKELNIVCKAVDDGYNVQPDTVAPIWNLMGMLSNAWHRVHVYVSP", "B3": "enzyme (Lactococcus lactis, UniProt Q48662); chain MRAHEILNNPFLNKGTAFTMKERQELGLIGLLPPTVQTIEEQAEQTYEQYLTKPSDLEKRHFLMEIFNTNRTLFYYLFNKHIVEFNPVVYDPTIADTIENYSHLFVDPQYAAYLDINHPENITETLKNAAGDREIRLIVVTDAEGILGIGDWGTQGVDISVGKLMIYTAAAGIDPASVLPVVIDAGTNRKELLEDHLYLGNHQERIYGDQYYSFVDQFVETAESIFPKLYLHWEDFGRSNAATILNNYKTKIPTFNDDIQGTGIVVLGGIFGSLDITGEKLTDQVYLCYGGGSAGAGIAGRVHAEMVSEGLSEEEAYKHFFMIDQQGLLFDDMEDLTPAQKPFAKKRADYKDAGDMTDLLNVVKTVKPTILVGTSTNPGAFTKEVVEAMCANTERPVIFPISNPTKKMETTAEQVIEWSDGKAFVATGVPSGTISYKGVDYQIGQANNSLIYPGLGLGMLASEAKLLTDEMIGAAAHSLSGLVDPGKPGAPVLPPFEFVADVSIKVAEAVAKKAQEQGLTESKETDMAKAVRDLKWYPEY", "B4": "COMT (Canis lupus familiaris, UniProt Q60F99); chain MGDTKEQRILRHVLQHAVAGDPQSVLEAIDTYCSQKEWAMNVGDKKGQILDAVVREQRPSVLLELGAYCGYSAVRMARLLEPGARLITIELNPDFAAITQQMLDFAGLQDRVTILTGASQDTIPELKKKHDVDTLDMVFLDHWKDRYLPDTLLLEECGLLQKGTVLLADNVICPGTPEFLAYVRGNNRFECTHFPSYLEYSKRVDGLEKVVYKGPGSPTQP", "B5": "FabZ (Campylobacter jejuni, UniProt A1VXZ7); chain MIDVMQIQEILPHRYPFLLVDKITELKVKEVVLGYKNISISDHVFMGHFPGHPIYPGVLILEGMAQTGGVLAFESMEDKVDPKSKVVYFTGIDGAKFRNPVRPGDRLDYEMSVVKNRGNMWIFKGQAFVDGNLVAEAELKAMIVDK", "B6": "MTRR A129T (Homo sapiens, UniProt Q9UBK8); chain MRRFLLLYATQQGQAKAIAEEICEQAVVHGFSADLHCISESDKYDLKTETAPLVVVVSTTGTGDPPDTARKFVKEIQNQTLPVDFFAHLRYGLLGLGDSEYTYFCNGGKIIDKRLQELGARHFYDTGHTDDCVGLELVVEPWIAGLWPALRKHFRSSRGQEEISGALPVASPASSRTDLVKSELLHIESQVELLRFDDSGRKDSEVLKQNAVNSNQSNVVIEDFESSLTRSVPPLSQASLNIPGLPPEYLQVHLQESLGQEESQVSVTSADPVFQVPISKAVQLTTNDAIKTTLLVELDISNTDFSYQPGDAFSVICPNSDSEVQSLLQRLQLEDKREHCVLLKIKADTKKKGATLPQHIPAGCSLQFIFTWCLEIRAIPKKAFLRALVDYTSDSAEKRRLQELCSKQGAADYSRFVRDACACLLDLLLAFPSCQPPLSLLLEHLPKLQPRPYSCASSSLFHPGKLHFVFNIVEFLSTATTEVLRKGVCTGWLALLVASVLQPNIHASHEDSGKALAPKISISPRTTNSFHLPDDPSIPIIMVGPGTGIAPFIGFLQHREKLQEQHPDGNFGAMWLFFGCRHKDRDYLFRKELRHFLKHGILTHLKVSFSRDAPVGEEEAPAKYVQDNIQLHGQQVARILLQENGHIYVCGDAKNMAKDVHDALVQIISKEVGVEKLEAMKTLATLKEEKRYLQDIWS", "B7": "enzyme (Bacillus pumilus, UniProt A8FFI9); chain EARSIAWSVDEFFKNREGTFVIQEVKEKSPWVYNKKRAKERFAPQSTFKVANALIGLQTGAVRDEYDIKYWDGVKREIDNWNRDHTLGSGMRDSVVWYYQAMARDIGEERMNHWVKAIHYGNKDISGGIDQFWLSSTLRISPIEQVRFLKQLYEETLPFDLKNMRTVKRMMVQEEEKHATLYGKTGSGSDIGWYVGFIKHEHKTYILATNIKGTGIEAKDITYRILKKYHLMEASV", "B8": "BshA Y95F (Bacillus subtilis, UniProt P42982); chain MRKLKIGITCYPSVGGSGIIATELGKQLAEKGHEIHFITSSIPFRLNTYHPNIHFHEVEVNQYAVFKYPPYDLTLASKIAEVAERENLDIIHAHFALPHAVCAYLAKQMLKRNIGIVTTLHGTDITVLGYDPSLKDLIRFAIESSDRVTAVSSALAAETYDLIKPEKKIETIYNFIDERVYLKKNTAAIKEKHGILPDEKVVIHVSNFRKVKRVQDVIRVFRNIAGKTKAKLLLVGDGPEKSTACELIRKYGLEDQVLMLGNQDRVEDLYSISDLKLLLSEKESFGLVLLEAMACGVPCIGTNIGGIPEVIKNNVSGFLVDVGDVTAATARAMSILEDEQLSNRFTKAAIEMLENEFSSKKIVSQYEQIYADLAEPE", "B9": "enzyme R201K (Arabidopsis thaliana, UniProt O82390); chain MNARALLCSSNIHSLYTSNRPPEKTSSSRSLRNLKPSPKSLRVWIYPRNRSSVFRVLVRSSDKSESSNSYYVEGDKVSGNNDVVSDSPSSIVLPWWEEFPKRWVIVLLCFSAFLLCNMDRVNMSIAILPMSAEYGWNPATVGLIQSSFFWGYLLTQIAGGIWADTVGGKRVLGFGVIWWSIATILTPVAAKLGLPYLLVVKAFMGVGEGVAMPAMNNILSKWVPVQERSRSLALVYSGMYLGSVTGLAFSPFLIHQFGWPSVFYSFGSLGTVWLTLWLTKAESSPLEDPTLLPEERKLIADNCASKEPVKSIPWRLILSKPPVWALISCHFCHNWGTFILLTWMPTYYHQVLKFNLMESGLLSVFPWMTMAISANAGGWIADTLVSRGFSVTNVRKIMQTIGFLGPAFFLTQLKHIDSPTMAVLCMACSQGTDAFSQSGLYSNHQDIAPRYSGVLLGLSNTAGVLAGVLGTAATGHILQHGSWDDVFTISVGLYLVGTVIWNLFSTGEKIID", "note": "Protocols differ between the studies behind these lines."}
{"Molecule": "FMO1 (Homo sapiens, UniProt Q01740)", "substrate": "CN(C)CCCOc1nn(Cc2ccccc2)c2ccccc12", "system": "HEK293 microsomes", "conditions": "37 °C, not purified, together with: NADPH regenerating system", "Km [µM]": 60}
{"Molecule": "protein (Actinidia chinensis, UniProt H9M5U5)", "substrate": "CC(C)=CCC/C(C)=C/CC/C(C)=C/CO[P@@](=O)(O)OP(=O)(O)O", "conditions": "pH 7.5, room temperature, labelled compound, together with: MgCl2 20 mM", "Km [µM]": 0.8}
{"Molecule": "B1 (ASRGL1)", "substrate": "NC(=O)C[C@H](N)C(=O)O", "conditions": "pH 7.4, 37 °C, NaCl 100 mM", "Km [µM]": 3400}
{"Molecule": "enzyme (Caballeronia cordobensis, UniProt P0DXY1)", "substrate": "NC(=O)C1=CN([C@@H]2O[C@H](COP(=O)(O)OP(=O)(O)OC[C@H]3O[C@@H](n4cnc5c(N)ncnc54)[C@H](OP(=O)(O)O)[C@@H]3O)[C@@H](O)[C@H]2O)C=CC1", "conditions": "pH 8, apparent, not purified, cofactor varied", "Km [µM]": 167}
{"Molecule": "B2 (SUOX R529M/V531M/Y400N)", "substrate": "O=[N+]([O-])O", "conditions": "pH 7, 25 °C, together with: dithionite-reduced methyl viologen", "Km [µM]": 30}
{"Molecule": "B3 (enzyme)", "substrate": "O=C(O)C[C@H](O)C(=O)O", "conditions": "pH 7, 30 °C, apparent", "Km [µM]": 1400}
{"Molecule": "B4 (COMT)", "substrate": "O=c1oc2c(O)c(O)ccc2cc1-c1nc2ccccc2s1", "system": "dog liver S9", "conditions": "pH 7.4, 37 °C", "Km [µM]": 1.1}
{"Molecule": "protein (Allochromatium vinosum, UniProt P45370)", "substrate": "C#CC[C@@H](O)CC(=O)SCCNC(=O)CCNC(=O)[C@H](O)C(C)(C)COP(=O)(O)OP(=O)(O)OC[C@H]1O[C@@H](n2cnc3c(N)ncnc32)[C@H](O)[C@@H]1OP(=O)(O)O", "conditions": "pH 7.8, 30 °C", "Km [µM]": 50}
{"Molecule": "POLI (Homo sapiens, UniProt Q9UNA4)", "substrate": "Cc1cn([C@H]2C[C@H](O)[C@@H](COP(=O)(O)OP(=O)(O)OP(=O)(O)O)O2)c(=O)[nH]c1=O", "conditions": "pH 8, 37 °C, misinsertion opposite dT, together with: Mg2+", "Km [µM]": 70}
{"Molecule": "B5 (FabZ)", "substrate": "C/C=C/C(=O)SCCNC(=O)CCNC(=O)[C@H](O)C(C)(C)COP(=O)(O)OP(=O)(O)OC[C@H]1O[C@@H](n2cnc3c(N)ncnc32)[C@H](O)[C@@H]1OP(=O)(O)O", "conditions": "pH 7.5, room temperature, NaCl 500 mM, reverse hydration reaction", "Km [µM]": 69.7}
{"Molecule": "FMO3 (Homo sapiens, UniProt P31513)", "substrate": "CCN(CC)CCNC(=O)c1ccc(N)cc1", "conditions": "pH 7.4, 37 °C, together with: NADPH 2 mM", "Km [µM]": 342}
{"Molecule": "B6 (MTRR A129T)", "substrate": "O=C1C(Cl)=CC(=Nc2ccc(O)cc2)C=C1Cl", "conditions": "pH 7.5, 37 °C, substoichiometric FMN, together with: NADPH", "Km [µM]": 1.1}
{"Molecule": "B7 (enzyme)", "substrate": "CC(=O)OCC1=C(C(=O)O)N2C(=O)[C@@H](NC(=O)Cc3cccs3)[C@H]2SC1", "conditions": "pH 7", "Km [µM]": 60}
{"Molecule": "B8 (BshA Y95F)", "substrate": "O=C(O)C[C@H](O)C(=O)O", "conditions": "pH 7.5, 21 °C, together with: UDP-GlcNAc 0–4 mM", "Km [µM]": 700}
{"Molecule": "B9 (enzyme R201K)", "substrate": "O=P(O)(O)O", "conditions": "pH 6.5, 25 °C, apparent, not purified", "Km [µM]": 214}
{"Molecule": "pcpF (Sphingobium chlorophenolicum, UniProt Q8KN33)", "substrate": "OCCS", "conditions": "pH 6.5, together with: GS-TriCH, ascorbic acid 2 mM", "Km [µM]": 930}
{"Molecule": "NotC (UniProt E0Y3X0)", "substrate": "CC(C)=CCOP(=O)(O)OP(=O)(O)O", "conditions": "pH 7.5, together with: 6-hydroxy-deoxybrevianamide E 22, MgCl2 5 mM", "Km [µM]": 1.89}
{"note": "Excerpt of the above:"}
{"Molecule": "protein (Allochromatium vinosum, UniProt P45370)", "substrate": "C#CC[C@@H](O)CC(=O)SCCNC(=O)CCNC(=O)[C@H](O)C(C)(C)COP(=O)(O)OP(=O)(O)OC[C@H]1O[C@@H](n2cnc3c(N)ncnc32)[C@H](O)[C@@H]1OP(=O)(O)O", "conditions": "pH 7.8, 30 °C", "Km [µM]": 50}
{"Molecule": "POLI (Homo sapiens, UniProt Q9UNA4)", "substrate": "Cc1cn([C@H]2C[C@H](O)[C@@H](COP(=O)(O)OP(=O)(O)OP(=O)(O)O)O2)c(=O)[nH]c1=O", "conditions": "pH 8, 37 °C, misinsertion opposite dT, together with: Mg2+", "Km [µM]": 70}
{"Molecule": "B5 (FabZ)", "substrate": "C/C=C/C(=O)SCCNC(=O)CCNC(=O)[C@H](O)C(C)(C)COP(=O)(O)OP(=O)(O)OC[C@H]1O[C@@H](n2cnc3c(N)ncnc32)[C@H](O)[C@@H]1OP(=O)(O)O", "conditions": "pH 7.5, room temperature, NaCl 500 mM, reverse hydration reaction", "Km [µM]": 69.7}
